Measurements pooled from the literature.
Every numbered part comes from another study and shows a few of its results, in no order.

Study 1
Target: Interferon regulatory factor 3, full length, phosphomimetic (IRF3, Homo sapiens, UniProt Q14653, residues 1-427, S386D/S396D/S398D/S402D/T404D/S405D)
UniProt Q14653, sequence (whole entry, unmodified, looked up): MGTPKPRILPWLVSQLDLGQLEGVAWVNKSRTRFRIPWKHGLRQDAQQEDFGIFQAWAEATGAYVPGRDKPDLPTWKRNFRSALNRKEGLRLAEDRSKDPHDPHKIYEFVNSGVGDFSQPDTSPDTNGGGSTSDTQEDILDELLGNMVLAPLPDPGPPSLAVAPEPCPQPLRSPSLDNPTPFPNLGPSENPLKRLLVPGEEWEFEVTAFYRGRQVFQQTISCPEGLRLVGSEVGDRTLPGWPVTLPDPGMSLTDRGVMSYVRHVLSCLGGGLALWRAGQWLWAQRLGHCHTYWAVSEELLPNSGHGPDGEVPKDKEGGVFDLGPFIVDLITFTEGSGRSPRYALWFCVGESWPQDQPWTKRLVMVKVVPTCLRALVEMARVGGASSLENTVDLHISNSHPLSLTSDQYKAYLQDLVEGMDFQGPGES
Method: protein-binding microarray
Form: double-stranded DNA, one strand shown
Matrix: in vitro
Tested at: 2540 nM top
Setting: 60-bp whole probe
Added: salmon DNA 0.4 mg/ml
Baseline: random background probes
Reading: higher = stronger binding
Shared flanks, not repeated: GCCTAGCAC … GTCTTGATTCGCTTGACGCTGCTG
Sequence | fitted relative affinity
GACGGTATCGGTATGGGGACGTGCTAG | 3.17 z-score
TTAGGACTGGACTTTCGGTTGGTGCTA | 0.376 z-score
GACGGTTTCGGGTACCGGGACGTGCTA | 4.18 z-score
TTAGATTCCGGTTTCGATTAGTGCTAG | 5.63 z-score
GACGCACTGGGGTTTCGAGACGTGCTA | -0.0299 z-score
GACGGTATCGGGTATCGGTACGTGCTA | 2.43 z-score

Study 2
Target: Histone acetyltransferase KAT6A, both winged helices, GST fusion (KAT6A, Homo sapiens, UniProt Q92794, residues 1-181)
Method: protein binding microarray
Form: double-stranded DNA, one strand shown
Matrix: in vitro
Tested at: not given
Setting: 8-mer, flanks averaged, mean of 2 arrays, mostly near background
Baseline: not given
Reading: higher = stronger binding
Construct (chain): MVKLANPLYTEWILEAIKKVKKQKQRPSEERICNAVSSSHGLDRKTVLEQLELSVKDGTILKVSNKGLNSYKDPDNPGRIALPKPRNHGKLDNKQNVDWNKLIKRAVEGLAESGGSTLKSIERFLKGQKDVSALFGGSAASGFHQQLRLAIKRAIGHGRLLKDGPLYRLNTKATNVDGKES
Sequence | E-score
AAGGGGCT | -0.186
AGACAGAA | -0.187
CGAGAATA | -0.0238
CTTCGGCA | 0.143
AGTAAGGG | -0.0638

Study 3
Target: Fragile X messenger ribonucleoprotein 1, C-terminal low-complexity region (Fmr1, Mus musculus, UniProt P35922)
Method: RNA Bind-n-Seq
Form: RNA
Matrix: in vitro
Tested at: 200 nM
Setting: whole 134-nt RNA, ends assumed
Added: 150 mM LiCl
Baseline: input library
Reading: higher = stronger binding
Library: 7-deaza-guanosine replaces G
Sequence | log2 enrichment
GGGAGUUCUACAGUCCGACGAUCUUCAGGAUUGUGAGGGUGAAACUCCCAUUCACAAGGCAGCUCGCUCUGGGAGCCUAGAAUGCAUCAGUGCCCUUGUGGCGAAUGGGGCUCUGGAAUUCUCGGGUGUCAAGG | -1.7
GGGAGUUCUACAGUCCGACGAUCCAAGUCCUGUGCUACACAUCGUAUGUACCGAAUCGGUUUGGAAAAAAAGGAAAGGAAAGUAUUAUGUUACGCCGUUCGGAUCUGCACUUCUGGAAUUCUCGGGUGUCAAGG | -1.65
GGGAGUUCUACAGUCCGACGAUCAAGUCCUGUGCUACACAUCGUAUGUACCGAAUCGGUUUUUUUGGAAAGGAAAAAGGAAAGUAUUAUGUUACGCCGUUCGGAUCUGCACUUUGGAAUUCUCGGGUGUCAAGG | -2.47
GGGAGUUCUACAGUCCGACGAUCCAAGUCCUGUGCUACACAUCGUAUGUACCGAAUCGGAGGAAAAAAAGGUUUUUGGAAAGUAUUAUGUUACGCCGUUCGGAUCUGCACUUCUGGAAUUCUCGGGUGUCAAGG | -1.45
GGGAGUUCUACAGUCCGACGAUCUCCUGUGCUACACAUCGUAUGUACCGAAUCGGGGAAAAAGGGAAAAAGGGAAAAAGGGGAAAGUAUUAUGUUACGCCGUUCGGAUCUGCAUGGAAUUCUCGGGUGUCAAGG | -0.656
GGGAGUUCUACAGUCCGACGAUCCUCAAGUCCUGUGCUACACAUCGUAUGUACCGAAUCGGUUUGGAGGUUUUUGGAAAGUAUUAUGUUACGCCGUUCGGAUCUGCACUUCCAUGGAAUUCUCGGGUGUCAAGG | -0.251
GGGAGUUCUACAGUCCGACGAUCUCAAGUCCUGUGCUACACAUCGUAUGUACCGAAUCGGUGGUUUGGAAAAAAAGGAAAGUAUUAUGUUACGCCGUUCGGAUCUGCACUUCCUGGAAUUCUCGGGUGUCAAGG | -0.695
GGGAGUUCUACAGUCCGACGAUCUCAAGUCCUGUGCUACACAUCGUAUGUACCGAAUCGGUUUGGAAAAAAAGGUGGAAAGUAUUAUGUUACGCCGUUCGGAUCUGCACUUCCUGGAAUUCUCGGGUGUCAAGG | -1.15

Further values, each from its own experiment
Molecule | target | assay | system | conditions | how to read | endpoint | value
PhoQ, residues 284 288 289 292 302 303 SMYGEC | PhoP, residues 12 14 15 18 19 YHFSH (Escherichia coli, UniProt P23836) | Sort-seq, item: YFP reporter | E. coli | PhoQ-PhoP variant library, added: 10 µM Mg2+ | baseline: high Mg2+ state, higher = stronger signaling | fold induction | 2.57

For quick reference, copied from above (study 3):
Sequence | log2 enrichment
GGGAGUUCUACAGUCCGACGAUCCAAGUCCUGUGCUACACAUCGUAUGUACCGAAUCGGAGGAAAAAAAGGUUUUUGGAAAGUAUUAUGUUACGCCGUUCGGAUCUGCACUUCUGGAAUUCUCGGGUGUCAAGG | -1.45
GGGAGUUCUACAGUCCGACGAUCUCCUGUGCUACACAUCGUAUGUACCGAAUCGGGGAAAAAGGGAAAAAGGGAAAAAGGGGAAAGUAUUAUGUUACGCCGUUCGGAUCUGCAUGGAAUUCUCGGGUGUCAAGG | -0.656
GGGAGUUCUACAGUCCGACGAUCCAAGUCCUGUGCUACACAUCGUAUGUACCGAAUCGGUUUGGAAAAAAAGGAAAGGAAAGUAUUAUGUUACGCCGUUCGGAUCUGCACUUCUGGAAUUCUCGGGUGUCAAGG | -1.65
